Measurements from different studies.
Each numbered part is a random draw from the data of one study; scales do not carry over between parts. “And” joins repeats or separate records; there may be more than shown.
UniProt Q9UQM7, sequence (whole entry, looked up): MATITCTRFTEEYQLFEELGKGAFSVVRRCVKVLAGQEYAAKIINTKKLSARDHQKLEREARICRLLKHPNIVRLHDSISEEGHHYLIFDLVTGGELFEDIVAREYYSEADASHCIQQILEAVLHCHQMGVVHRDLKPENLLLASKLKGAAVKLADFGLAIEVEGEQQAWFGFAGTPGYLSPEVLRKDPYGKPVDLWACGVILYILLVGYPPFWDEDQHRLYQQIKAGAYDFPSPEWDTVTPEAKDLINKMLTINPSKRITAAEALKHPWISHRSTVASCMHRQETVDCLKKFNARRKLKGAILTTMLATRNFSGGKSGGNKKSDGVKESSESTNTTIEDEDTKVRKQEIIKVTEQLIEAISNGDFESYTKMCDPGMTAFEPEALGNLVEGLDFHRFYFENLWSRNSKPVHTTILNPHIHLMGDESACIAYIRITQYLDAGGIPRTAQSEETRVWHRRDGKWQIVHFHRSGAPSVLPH
UniProt P22455, sequence (whole entry, looked up): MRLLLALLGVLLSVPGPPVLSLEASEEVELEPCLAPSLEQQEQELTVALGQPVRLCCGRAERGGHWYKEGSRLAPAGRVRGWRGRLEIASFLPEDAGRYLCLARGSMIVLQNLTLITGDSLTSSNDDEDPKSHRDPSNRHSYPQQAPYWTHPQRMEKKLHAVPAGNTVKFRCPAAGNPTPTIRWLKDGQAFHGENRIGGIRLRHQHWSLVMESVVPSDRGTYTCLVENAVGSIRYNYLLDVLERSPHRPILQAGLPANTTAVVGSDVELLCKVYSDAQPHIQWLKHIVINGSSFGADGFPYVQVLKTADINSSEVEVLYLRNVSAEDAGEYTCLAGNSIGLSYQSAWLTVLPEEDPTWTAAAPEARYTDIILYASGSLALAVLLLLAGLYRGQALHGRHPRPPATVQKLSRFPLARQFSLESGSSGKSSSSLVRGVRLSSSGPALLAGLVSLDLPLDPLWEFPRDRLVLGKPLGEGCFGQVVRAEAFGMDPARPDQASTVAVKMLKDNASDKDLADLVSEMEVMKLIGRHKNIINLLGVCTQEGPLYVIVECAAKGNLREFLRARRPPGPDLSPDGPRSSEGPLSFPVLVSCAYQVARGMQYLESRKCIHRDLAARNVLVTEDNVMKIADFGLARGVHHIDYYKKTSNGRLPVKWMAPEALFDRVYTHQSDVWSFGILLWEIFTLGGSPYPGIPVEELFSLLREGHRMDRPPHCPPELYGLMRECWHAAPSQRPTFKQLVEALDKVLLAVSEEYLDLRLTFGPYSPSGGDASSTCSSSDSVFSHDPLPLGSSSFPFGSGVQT
UniProt Q9UPZ9, sequence (whole entry, looked up): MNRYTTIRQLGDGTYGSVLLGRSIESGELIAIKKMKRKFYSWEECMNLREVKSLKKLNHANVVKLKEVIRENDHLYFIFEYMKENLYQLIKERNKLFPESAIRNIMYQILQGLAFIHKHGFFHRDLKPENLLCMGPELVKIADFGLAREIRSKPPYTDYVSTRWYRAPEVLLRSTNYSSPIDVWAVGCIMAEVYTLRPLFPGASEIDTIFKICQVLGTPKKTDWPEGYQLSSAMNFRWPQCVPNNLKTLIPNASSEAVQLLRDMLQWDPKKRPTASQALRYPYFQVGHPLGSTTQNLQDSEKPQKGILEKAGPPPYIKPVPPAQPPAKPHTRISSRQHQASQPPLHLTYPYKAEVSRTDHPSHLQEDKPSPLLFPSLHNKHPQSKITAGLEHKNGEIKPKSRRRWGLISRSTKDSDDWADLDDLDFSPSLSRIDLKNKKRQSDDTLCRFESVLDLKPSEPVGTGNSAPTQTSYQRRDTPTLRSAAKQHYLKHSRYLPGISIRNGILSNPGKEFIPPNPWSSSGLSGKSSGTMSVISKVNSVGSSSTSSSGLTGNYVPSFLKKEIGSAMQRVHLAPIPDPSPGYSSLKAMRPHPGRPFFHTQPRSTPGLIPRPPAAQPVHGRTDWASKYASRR
UniProt Q6ZWH5, sequence (whole entry, looked up): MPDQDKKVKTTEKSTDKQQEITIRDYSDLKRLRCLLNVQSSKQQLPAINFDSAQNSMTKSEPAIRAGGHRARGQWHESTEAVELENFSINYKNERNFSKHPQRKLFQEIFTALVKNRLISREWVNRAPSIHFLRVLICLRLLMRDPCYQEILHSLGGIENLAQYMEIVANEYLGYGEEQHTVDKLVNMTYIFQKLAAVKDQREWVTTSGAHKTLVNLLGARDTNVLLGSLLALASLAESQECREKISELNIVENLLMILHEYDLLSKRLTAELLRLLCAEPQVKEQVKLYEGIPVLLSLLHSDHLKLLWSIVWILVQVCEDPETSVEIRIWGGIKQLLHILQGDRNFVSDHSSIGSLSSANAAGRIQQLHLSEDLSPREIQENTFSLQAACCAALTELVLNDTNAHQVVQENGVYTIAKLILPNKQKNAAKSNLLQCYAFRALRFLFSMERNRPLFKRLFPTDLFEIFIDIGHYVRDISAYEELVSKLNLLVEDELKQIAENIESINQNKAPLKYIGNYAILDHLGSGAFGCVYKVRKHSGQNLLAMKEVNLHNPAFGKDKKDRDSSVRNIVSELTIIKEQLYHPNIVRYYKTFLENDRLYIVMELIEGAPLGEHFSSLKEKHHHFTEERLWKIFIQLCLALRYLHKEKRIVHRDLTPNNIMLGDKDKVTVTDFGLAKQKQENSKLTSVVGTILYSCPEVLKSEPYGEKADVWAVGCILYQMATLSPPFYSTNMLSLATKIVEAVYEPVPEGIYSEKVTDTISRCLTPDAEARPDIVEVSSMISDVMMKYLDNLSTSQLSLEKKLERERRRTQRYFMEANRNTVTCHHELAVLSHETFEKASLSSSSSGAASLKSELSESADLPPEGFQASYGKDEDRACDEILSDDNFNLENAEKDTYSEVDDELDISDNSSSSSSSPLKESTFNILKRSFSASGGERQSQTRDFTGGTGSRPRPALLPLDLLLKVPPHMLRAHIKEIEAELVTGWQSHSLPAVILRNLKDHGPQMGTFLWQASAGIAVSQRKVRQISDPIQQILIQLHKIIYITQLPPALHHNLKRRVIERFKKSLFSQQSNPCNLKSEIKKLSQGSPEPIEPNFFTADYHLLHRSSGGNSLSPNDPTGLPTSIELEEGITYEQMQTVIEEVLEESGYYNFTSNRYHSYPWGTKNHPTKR
UniProt P10721, sequence (whole entry, unmodified, looked up): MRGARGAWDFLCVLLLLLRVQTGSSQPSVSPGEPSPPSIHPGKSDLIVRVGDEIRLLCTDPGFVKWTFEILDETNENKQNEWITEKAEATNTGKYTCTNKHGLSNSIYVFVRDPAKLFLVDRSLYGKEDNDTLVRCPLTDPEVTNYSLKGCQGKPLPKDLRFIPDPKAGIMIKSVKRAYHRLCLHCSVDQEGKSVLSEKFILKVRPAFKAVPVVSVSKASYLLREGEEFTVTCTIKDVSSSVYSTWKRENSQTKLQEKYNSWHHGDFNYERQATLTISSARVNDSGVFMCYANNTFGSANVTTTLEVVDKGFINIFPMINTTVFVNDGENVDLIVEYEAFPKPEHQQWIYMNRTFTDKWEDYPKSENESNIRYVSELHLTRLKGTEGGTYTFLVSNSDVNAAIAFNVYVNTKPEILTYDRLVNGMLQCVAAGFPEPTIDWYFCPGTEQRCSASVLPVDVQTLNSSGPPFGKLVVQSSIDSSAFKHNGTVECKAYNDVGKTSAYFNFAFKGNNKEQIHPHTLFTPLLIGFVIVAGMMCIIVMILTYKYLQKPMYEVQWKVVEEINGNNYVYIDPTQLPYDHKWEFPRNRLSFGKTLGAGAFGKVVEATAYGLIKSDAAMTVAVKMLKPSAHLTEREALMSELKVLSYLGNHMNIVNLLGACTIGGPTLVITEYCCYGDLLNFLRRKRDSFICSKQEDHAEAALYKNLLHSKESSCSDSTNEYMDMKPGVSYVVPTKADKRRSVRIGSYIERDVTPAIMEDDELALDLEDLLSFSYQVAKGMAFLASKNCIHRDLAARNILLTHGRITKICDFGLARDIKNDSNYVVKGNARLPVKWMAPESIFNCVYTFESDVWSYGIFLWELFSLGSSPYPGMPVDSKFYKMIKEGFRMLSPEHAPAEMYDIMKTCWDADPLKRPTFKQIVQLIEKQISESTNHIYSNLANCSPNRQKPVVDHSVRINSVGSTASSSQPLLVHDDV

Block 1
Compound: CC(C)(C(=O)O)[C@H](NC(=O)Cc1cccc(I)c1)c1ccc2oc(=O)[nH]c2c1
Method: Incucyte 3D growth
Tested at: 30 µM
Reading: higher = more growth
It gave 6.38e+06 a.u. and 7.15e+06 a.u. and 8.3e+06 a.u. and 7.74e+06 a.u. for spheroid area (NCI-H358; 192 h).
The spheroid area was 3.05e+07 a.u. and 2.63e+07 a.u. and 4.79e+07 a.u. and 3.43e+07 a.u. and 3.07e+07 a.u. and 2.62e+07 a.u. (MEL-JUSO; 324.52 h).
The spheroid area was 1.32e+07 a.u. and 1.14e+07 a.u. and 1.67e+07 a.u. and 7.84e+06 a.u. and 6.13e+06 a.u. and 1.26e+07 a.u. (A375; 24 h).
It gave 1.62e+07 a.u. and 1.86e+07 a.u. and 1.78e+07 a.u. and 2.72e+07 a.u. and 1.51e+07 a.u. and 2.21e+07 a.u. for spheroid area (MEL-JUSO; 228.52 h).

Block 2
SMILES: CNC(=O)Nc1ccc2c(c1)CC[C@@]21OC(=O)N(CC(=O)N(Cc2ccc(F)cc2)[C@@H](C)C(F)(F)F)C1=O
Method: competition with immobilised ligand
Tested at: 1 µM
AAK1 (Homo sapiens, UniProt Q2M2I8); cell-free assay — remaining binding: 100%.
For KIT (Homo sapiens, UniProt P10721, D816V); cell-free assay: remaining binding read 70%.
The remaining binding was 81% (NEK10 (Homo sapiens, UniProt Q6ZWH5); cell-free assay).
The remaining binding was 90% (CLK4 (Homo sapiens, UniProt Q9HAZ1); cell-free assay).
For LATS2 (Homo sapiens, UniProt Q9NRM7); cell-free assay: remaining binding read 47%.
The remaining binding was 90% (Ribosomal protein S6 kinase alpha-2, C-terminal kinase domain (RPS6KA2, Homo sapiens, UniProt Q15349); cell-free assay).
The remaining binding was 91% (PIK3CA (Homo sapiens, UniProt P42336, H1047Y); cell-free assay).
For Tyrosine-protein kinase ABL1, non-phosphorylated (ABL1, Homo sapiens, UniProt P00519, H396P); cell-free assay: remaining binding read 49%.
For MYLK (Homo sapiens, UniProt Q15746); cell-free assay: remaining binding read 66%.
The remaining binding was 84% (Tyrosine-protein kinase ABL1, non-phosphorylated (ABL1, Homo sapiens, UniProt P00519); cell-free assay).
CAMK2A (Homo sapiens, UniProt Q9UQM7); cell-free assay — remaining binding: 91%.
For RIPK1 (Homo sapiens, UniProt Q13546); cell-free assay: remaining binding read 100%.
For CILK1 (Homo sapiens, UniProt Q9UPZ9); binding: remaining binding read 72%.
For PIKFYVE (Homo sapiens, UniProt Q9Y2I7); cell-free assay: remaining binding read 58%.
The remaining binding was 100% (FGFR4 (Homo sapiens, UniProt P22455); cell-free assay).

Block 3
SMILES: C=CCc1ccc(O)c(-c2ccc(O)c(CC=C)c2)c1
Effect on: chloride current
ANO1 del476-501/F628A: Anoctamin-1 (ANO1, Homo sapiens, UniProt Q5XXA6, del476-501/F628A)
UniProt Q5XXA6, sequence (whole entry, unmodified, looked up): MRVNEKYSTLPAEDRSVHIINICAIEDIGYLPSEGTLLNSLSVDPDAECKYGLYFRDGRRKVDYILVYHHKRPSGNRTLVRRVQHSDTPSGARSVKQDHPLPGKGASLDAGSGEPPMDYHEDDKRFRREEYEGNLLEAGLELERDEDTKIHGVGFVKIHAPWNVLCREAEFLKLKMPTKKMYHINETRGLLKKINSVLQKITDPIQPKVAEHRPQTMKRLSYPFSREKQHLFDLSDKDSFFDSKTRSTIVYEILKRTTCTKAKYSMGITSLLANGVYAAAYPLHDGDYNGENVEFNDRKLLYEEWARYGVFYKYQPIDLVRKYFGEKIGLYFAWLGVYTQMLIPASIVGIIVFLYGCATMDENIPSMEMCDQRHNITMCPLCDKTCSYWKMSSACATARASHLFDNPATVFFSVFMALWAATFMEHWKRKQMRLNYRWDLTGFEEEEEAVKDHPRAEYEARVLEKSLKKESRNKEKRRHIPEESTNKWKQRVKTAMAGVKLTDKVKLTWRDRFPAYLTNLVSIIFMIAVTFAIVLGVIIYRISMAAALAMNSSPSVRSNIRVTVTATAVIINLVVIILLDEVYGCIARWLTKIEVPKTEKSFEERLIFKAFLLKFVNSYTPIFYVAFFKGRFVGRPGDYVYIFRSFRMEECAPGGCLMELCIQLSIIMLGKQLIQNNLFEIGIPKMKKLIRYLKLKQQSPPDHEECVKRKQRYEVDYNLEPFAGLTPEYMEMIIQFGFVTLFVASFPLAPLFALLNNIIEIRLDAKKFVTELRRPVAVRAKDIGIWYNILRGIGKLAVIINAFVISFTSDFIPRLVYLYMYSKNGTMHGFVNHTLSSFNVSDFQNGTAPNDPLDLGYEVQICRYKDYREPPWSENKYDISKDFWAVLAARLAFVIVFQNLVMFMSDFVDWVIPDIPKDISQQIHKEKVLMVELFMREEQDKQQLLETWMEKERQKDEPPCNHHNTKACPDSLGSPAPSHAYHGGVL
It gave -0.641 for normalized current (ANO1 del476-501/F628A; whole-cell voltage clamp; 1 µM, I-V at -80 mV, with: 4 µM Ca2+).
ANO1 del476-501/F628A; whole-cell voltage clamp; 1 µM, I-V at -20 mV, with: 4 µM Ca2+ — normalized current: -0.143.
Anoctamin-1 (ANO1, Homo sapiens, UniProt Q5XXA6, del476-501/R429A); whole-cell voltage clamp; concentration not given — normalized current: 0.383.
The normalized current was 0.654 (Anoctamin-1 (ANO1, Homo sapiens, UniProt Q5XXA6, del476-501/E659A/K629A); inside-out patch clamp; 10 µM, membrane voltage 80 mV).

Block 4
Cell line: mouse MPNST tumor cells
Method: high-content immunofluorescence imaging
Measured: nuclear SOX9
Tested at: 10 µM
Time: 12 h
Setting: mean of 2 replicates
Reference: DMSO control
Reading: higher = more nuclear SOX9
`CCCCCN(CCCOC)C(=O)C(CCC(=O)O)NC(=O)c1ccc(Cl)c(Cl)c1` (stereo not drawn) — result for “nuclear SOX9 intensity”: 99.1 % of DMSO.
`C[C@]12C=CC(=O)C=C1CC[C@@H]1[C@@H]2[C@@H](O)C[C@@]2(C)[C@H]1CC[C@]2(O)C(=O)CO` — result for “nuclear SOX9 intensity”: 79.1 % of DMSO and 72.7 % of DMSO.
For `c1ccc(CN(CC2=NCCN2)c2ccccc2)cc1`, “nuclear SOX9 intensity” read 116 % of DMSO.
For `NCc1ccc(S(N)(=O)=O)cc1`, “nuclear SOX9 intensity” read 79.4 % of DMSO.
Under “nuclear SOX9 intensity”, `CCC(=O)NCC[C@@H]1CCc2ccc3c(c21)CCO3` is recorded as 99.3 % of DMSO and 110 % of DMSO.

Block 5
Target: Calcium/calmodulin-dependent protein kinase type II subunit alpha (CAMK2A, Homo sapiens, UniProt Q9UQM7)
Effect on: enzyme activity
Action: inhibitor
Tested at: 10 µM
For `Cc1nc(NC(=O)N2CCC[C@H]2C(N)=O)sc1-c1ccnc(C(C)(C)C(F)(F)F)c1`, the inhibition was 10%.
The inhibition of `C=C[C@H]1[C@H](O[C@@H]2O[C@H](CO)[C@@H](O)[C@H](O)[C@H]2O)OC=C(C(=O)OC)[C@H]1C[C@@H]1c2cc(O)c(O)cc2CCN1C(C)=O` is reported as -31%.
`N[C@@H](CCC(=O)N[C@@H](Cc1ccccc1)C(=O)O)C(=O)O` gave an inhibition of 5%.
`COc1cc2c(c(OC)c1OC)-c1ccc(OC)c(=O)cc1[C@@H](NC(C)=O)CC2` gave an inhibition of 12%.

Mixed results
The pyridoxate level of `CC(=O)N[C@@H](Cc1c[nH]c2ccccc12)C(=O)N[C@@H](CCC(=O)C=[N+]=[N-])C(=O)OC(C)C` is reported as 110000 a.u. and 47400 a.u. and 159000 a.u. and 65000 a.u. and 107000 a.u. and 79900 a.u. (UPLC-MS/MS; EL4 tumor, C57BL/6 CES1-/- mice, tumor; subcutaneous, 0.3 mg/kg DON equivalent daily, 5 days; higher = more metabolite).

For quick reference, copied from above (block 2):
AAK1 (Homo sapiens, UniProt Q2M2I8); cell-free assay — remaining binding: 100%.
For KIT (Homo sapiens, UniProt P10721, D816V); cell-free assay: remaining binding read 70%.
CAMK2A (Homo sapiens, UniProt Q9UQM7); cell-free assay — remaining binding: 91%.
For LATS2 (Homo sapiens, UniProt Q9NRM7); cell-free assay: remaining binding read 47%.
For MYLK (Homo sapiens, UniProt Q15746); cell-free assay: remaining binding read 66%.
